Published values gathered from unrelated publications.
Parts stem from different laboratories: compare values within a part only.

Set 1
Target: Prothrombin, mature alpha-thrombin (F2, Homo sapiens, UniProt P00734)
Technique: aptamer microarray, sandwich
Form: DNA with 2'F-ANA
Sample: in vitro
Tested at: 200 nM
Notes: whole 15-mer aptamer, many near background
Added: Cy3 exosite-II aptamer, 400 nM
Direction: higher = stronger binding
Sequence: GGTTGGTGTGGTTGG
| Modification | mean fluorescence intensity |
| --- | --- |
| 2'F-ANA at 2 3 4 7 9 13 15 | 447 a.u. |
| 2'F-ANA at 2 4 10 12 13 | 109 a.u. |
| 2'F-ANA at 1 4 5 7 8 9 10 12 13 15 | 49.1 a.u. |
| 2'F-ANA at 3 4 8 9 12 | 1010 a.u. |
| 2'F-ANA at 2 6 9 10 11 15 | 94.9 a.u. |
| 2'F-ANA at 2 5 8 9 10 11 12 13 14 15 | 50.5 a.u. |
| 2'F-ANA at 1 5 7 8 10 11 12 14 15 | 47.6 a.u. |

Set 2
Target: Histone acetyltransferase KAT6A, both winged helices, GST fusion (KAT6A, Homo sapiens, UniProt Q92794, residues 1-181)
Technique: protein binding microarray
Form: double-stranded DNA, one strand shown
Sample: in vitro
Tested at: not given
Notes: 8-mer, flanks averaged, mean of 2 arrays, mostly near background
Reference: not given
Direction: higher = stronger binding
Target sequence (chain): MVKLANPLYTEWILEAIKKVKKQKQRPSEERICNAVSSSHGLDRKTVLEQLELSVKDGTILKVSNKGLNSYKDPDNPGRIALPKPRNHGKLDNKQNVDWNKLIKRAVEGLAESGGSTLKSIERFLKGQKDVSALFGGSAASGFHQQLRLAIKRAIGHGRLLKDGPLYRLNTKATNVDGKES
| Sequence | E-score |
| --- | --- |
| CCTTCCTA | -0.187 |
| AGGAAAAG | -0.115 |
| CAACGGGG | 0.0231 |
| CGTCTATA | 0.0471 |
| AGAGCGCC | 0.244 |
| CGGTTGAG | 0.146 |

Set 3
Target: Transcription factor SOX-2, HMG box (Sox2, Mus musculus, UniProt P48432, residues 41-119)
Chain of UniProt P48432 (41-119, looked up): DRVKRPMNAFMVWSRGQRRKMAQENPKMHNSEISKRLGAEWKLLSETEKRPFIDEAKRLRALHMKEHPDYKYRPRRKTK
Technique: Spec-seq
Form: double-stranded DNA, one strand shown
Sample: in vitro
Tested at: not given
Notes: whole probe, mean of replicates
Reference: not given
Direction: lower = stronger binding
All sequences stand within: GAGTCGTCTCGTCAGCAC … CCGTAGAGCACTCAGGTC
| Sequence | relative binding energy |
| --- | --- |
| CGAGGTT | 1.33 ln ratio |
| CATATTG | -0.0711 ln ratio |
| CATGTAC | 0.28 ln ratio |
| CATAAGT | -0.104 ln ratio |
| CATGAAT | -0.341 ln ratio |
| CATCGCA | 0.661 ln ratio |
| CAAGGTT | 0.934 ln ratio |
| CATCTGA | 0.854 ln ratio |
| ATCCGTT | 0.711 ln ratio |

Mixed results
| Substance | target | test | test system | setting | scale | measurement | value |
| --- | --- | --- | --- | --- | --- | --- | --- |
| PhoQ, residues 284 288 289 292 302 303 DDMDFR | PhoP, residues 12 14 15 18 19 NQGLL (Escherichia coli, UniProt P23836) | Sort-seq, refers to: YFP reporter | E. coli | PhoQ-PhoP variant library, added: 10 µM Mg2+ | reference: high Mg2+ state, higher = stronger signaling | fold induction | 1.04 |

For quick reference, copied from above (set 3):
| Sequence | relative binding energy |
| --- | --- |
| CGAGGTT | 1.33 ln ratio |
| CATCTGA | 0.854 ln ratio |
